Results from different studies.
UniProt P04062, sequence (whole entry, unmodified, looked up): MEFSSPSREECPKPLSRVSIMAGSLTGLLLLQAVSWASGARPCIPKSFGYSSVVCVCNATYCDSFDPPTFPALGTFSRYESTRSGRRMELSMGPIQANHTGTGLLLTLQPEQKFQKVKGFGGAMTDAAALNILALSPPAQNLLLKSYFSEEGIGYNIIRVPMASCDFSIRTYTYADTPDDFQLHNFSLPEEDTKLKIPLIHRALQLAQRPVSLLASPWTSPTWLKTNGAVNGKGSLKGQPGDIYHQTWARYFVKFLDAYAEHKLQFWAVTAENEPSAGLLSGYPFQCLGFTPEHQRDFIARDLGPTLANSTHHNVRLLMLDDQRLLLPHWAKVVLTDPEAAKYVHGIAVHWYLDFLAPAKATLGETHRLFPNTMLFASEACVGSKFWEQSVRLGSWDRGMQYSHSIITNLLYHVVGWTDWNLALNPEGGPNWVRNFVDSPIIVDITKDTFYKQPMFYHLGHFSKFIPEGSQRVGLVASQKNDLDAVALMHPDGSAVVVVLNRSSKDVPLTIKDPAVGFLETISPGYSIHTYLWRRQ

Under “log2 fold change”, `CN1CCCNC(=O)c2cccc(c2)C(=O)NCCCN(C)CCCNc2cccc3c2C(=O)c2cccc(c2C3=O)NCCC1` is recorded as -1.89 (SAS; RNA-Seq, refers to: SLFN11 mRNA; 1 µM, 6 h; reference: untreated cells).
`CC(C)c1ccc(N(C)c2ccc3c(c2)OCC[C@H]3CNc2cnccc2C(=O)O)cc1` has an IC50 of 10.6 nM (Lu-65; cell growth or viability, ATP luminescence; 7 days).
The MRT of `C=C1CC[C@H](OCCCNC(=O)CCOCCOCCOCCOCCOCCOCCOCCOCCOCCOCCOCCOCCOCCOCCOCCOCCOCCOCCOCCOCCOCCOCCOCCOCCOCCOCCOCCOCCOCCOCCOCCOCCOCCOCCOCCOCCNC(=O)CCN2C(=O)CC(SC[C@H](NC(=O)[C@H](Cc3ccccc3)NC(=O)[C@H](CC(N)=O)NC(=O)[C@H](Cc3c[nH]cn3)NC(=O)[C@@H](NC(=O)[C@H](CC(=O)O)NC(=O)[C@H](CCC(N)=O)NC(=O)[C@H](CC(C)C)NC(=O)[C@H](CCCCN)NC(=O)[C@H](CCCCN)NC(=O)[C@H](CCCNC(=N)N)NC(=O)[C@H](CC(C)C)NC(=O)[C@H](Cc3c[nH]c4ccccc34)NC(=O)[C@H](CCC(=O)O)NC(=O)[C@@H](NC(=O)[C@H](CCCNC(=N)N)NC(=O)[C@H](CCC(=O)O)NC(=O)[C@H](CCSC)NC(=O)[C@H](CO)NC(=O)[C@H](CC(N)=O)NC(=O)[C@H](CC(C)C)NC(=O)[C@H](Cc3c[nH]cn3)NC(=O)[C@H](CCCCN)NC(=O)CNC(=O)[C@H](CC(C)C)NC(=O)[C@H](CC(N)=O)NC(=O)[C@H](Cc3c[nH]cn3)NC(=O)[C@H](CCSC)NC(=O)[C@H](CC(C)C)NC(=O)[C@H](CCC(N)=O)NC(=O)[C@@H](NC(=O)[C@H](CCC(=O)O)NC(=O)[C@H](CO)NC(=O)[C@@H](NC(=O)[C@@H](N)CO)C(C)C)[C@@H](C)CC)C(C)C)C(C)C)C(=O)O)C2=O)C/C1=C/C=C1\CCC[C@]2(C)[C@@H]([C@H](C)CCCC(C)(C)O)CC[C@@H]12` (some centres unmarked) is reported as 29.5 h (male cynomolgus monkey, plasma; subcutaneous, 0.007 mg/kg, single dose).
`CC1CN(CCOCCSc2ccc(Cl)cc2)CC(C)O1.O=C(O)C(=O)O` (centres unmarked) has a relative translation of 112% (Trypanosoma cruzi; reporter mRNA translation, inhibitor, refers to: capped polyadenylated Renilla luciferase mRNA; cell-free extract; concentration not given; reference: control RNA).
`CNS(=O)(=O)Nc1nccc(Cc2c(C)c3ccc(Oc4ncccc4F)cc3oc2=O)c1F` has an IC50 of 28.2 nM (SNU-C1; cell viability; 7 days).
With `CCN(CC)CC(=O)Nc1cccc(-n2cc(-c3ccc4ccc(-c5cn(-c6cccc(NC(=O)CN(CC)CC)c6)nn5)cc4c3)nn2)c1` the fold regulation was 1.02 (RCC4; PCR angiogenesis array, refers to: LECT1; 5 x IC50, 2 h, normoxia; reference: untreated).
For `CCCn1ncc(CN2CCCC(C(=O)c3cccc(OC(C)C)c3)C2)c1C` (centres unmarked), the relative translation was 96% (Trypanosoma cruzi; reporter mRNA translation, inhibitor, refers to: capped polyadenylated Renilla luciferase mRNA; cell-free extract; concentration not given; reference: control RNA).
For `CO[C@@H]1[C@@H](OC(N)=O)[C@@H](O)[C@H](Oc2ccc3c(O)c(NC(=O)c4ccc(O)c(CC=C(C)C)c4)c(=O)oc3c2C)OC1(C)C`, the colony count was 1.05 (HCT-116 parental; 250 µM, replicate 2).
The IC50 of `CCOc1cncc(-c2ccc(NC(=O)C3(c4ccnc(NS(=O)(=O)C5CC5)n4)CCOCC3)nc2)n1` is reported as 68 nM (MOLP-2; cell growth or viability, ATP luminescence; 72 h).
`C=C1C(=O)OC2C1CCC(C)(O)C13C=CC(C)(C21)C1(C3)C(=O)OC2C3C(C)C(=O)CC3C(=C)CC(OC(C)=O)C21` (centres unmarked): acetylation “decreased” (AML12; Western blot, refers to: PGC-1α; concentration not given, added: palmitate/oleate).
For `Cc1ccccc1-c1ccc(COCCCCCN2C[C@H](O)[C@@H](O)[C@H](O)[C@H]2CO)cc1`, the IC50 was 70 nM (GBA1 (Homo sapiens, UniProt P04062, R534H); inhibitor, 4MU-β-D-glucopyranoside; added: 4MU-β-D-glucopyranoside).
Under “log2 fold change”, `Cn1ncc2cc(-c3cncc(Cl)c3N3CCC4(CCNC4=O)CC3)ccc21` is recorded as 2.04 (LS174T; gene expression, microarray, refers to: PADI1 mRNA; concentration not given, 24 h; reference: untreated cells).
Under “log2 fold change”, `Cc1ncsc1-c1ccc(C(C)NC(=O)C2CC(O)CN2C(=O)C(NC(=O)CCCCCCCCCCN2CCCC(Nc3ncc(Cl)c(Nc4ccccc4S(=O)(=O)C(C)C)n3)C2)C(C)(C)C)cc1` (centres unmarked) is recorded as -1 (22Rv1; RNA-seq, refers to: OBSCN mRNA; concentration not given; reference: DMSO).
The colony survival of `COc1ccccc1-c1ccncc1C(=O)Nc1nnc(OCc2ccc(Cl)cc2)s1` is reported as 10.8% (PEO1 BRCA2-mutant; 0.5 µM, added: olaparib 0.125 µM).

Some of these lines once more:
For `CO[C@@H]1[C@@H](OC(N)=O)[C@@H](O)[C@H](Oc2ccc3c(O)c(NC(=O)c4ccc(O)c(CC=C(C)C)c4)c(=O)oc3c2C)OC1(C)C`, the colony count was 1.05 (HCT-116 parental; 250 µM, replicate 2).
The IC50 of `CCOc1cncc(-c2ccc(NC(=O)C3(c4ccnc(NS(=O)(=O)C5CC5)n4)CCOCC3)nc2)n1` is reported as 68 nM (MOLP-2; cell growth or viability, ATP luminescence; 72 h).
